{"data": "Results pooled from the literature", "note": "Lines come from different studies, so protocols differ. Several values in a cell are separate wells, animals, samples, runs or records."}
{"Compound": "CC[C@H](C)[C@@H]([C@@H](CC(=O)N1CCC[C@H]1[C@H](OC)[C@@H](C)C(=O)N[C@@H](Cc1ccccc1)C(=O)NCCCO)OC)N(C)C(=O)[C@@H](NC(=O)[C@H](C(C)C)N(C)C)C(C)C", "system": "human liver microsomes 1 mg/mL", "setting": "1 µM, with: ketoconazole or CYP3cide", "quantity": "inhibition of metabolism", "value": "~100%"}
{"Compound": "COc1c(OCCCN2CCOCC2)ccc2c1N=C(NC(=O)c1cnc(N)nc1)N1CCN=C21", "system": "human, mild hepatic impairment", "scale": "baseline: normal hepatic function", "quantity": "decrease in clearance", "value": "19.2%"}
{"Compound": "Cc1ncnc2c1ccn2[C@@H]1C[C@H](Oc2cc(C(F)F)c(F)c3c2CNCC3)[C@@H](O)[C@H]1O", "system": "human", "setting": "oral, 4 mg twice daily", "scale": "baseline: AUC(tau) multiple over single dose", "quantity": "accumulation ratio", "value": "3.77 and 2.83"}
{"Compound": "CCc1cc(C(=O)NC)c2nccc(N3CCc4c(cc(Cn5ccnc5)cc4-c4cn(C)nc4C(F)(F)F)C3=O)c2c1", "system": "Sprague Dawley rats", "setting": "oral, 100 mg/kg twice daily, day 4", "scale": "baseline: day 1", "quantity": "body weight change", "value": "6.2%"}
{"Compound": "C=CC(=O)Nc1cc(Nc2nccc(-c3cn(C)c4ccccc34)n2)c(OC)cc1N(C)CCN(C)C", "test": "storage stability", "system": "human dried blood spot", "setting": "30 d, on ice, LLOQ level", "quantity": "recovery", "value": "60.2%"}
{"Compound": "Cn1nc2c(=O)n(C3CC3)cnc2c1[C@](O)(c1cnc(C(F)(F)F)c(Cl)c1)C(F)(F)F", "system": "humanized SCID mice, blood", "setting": "10 mg/kg once daily, 6 days, infected", "quantity": "AUC(0-24 h)", "value": "66.4 µM·h"}
{"Compound": "NC1(C(=O)N[C@@H](CCO)c2ccc(Cl)cc2)CCN(c2nc[nH]c3nccc2-3)CC1", "system": "metastatic CRPC patients", "setting": "400 mg b.i.d., grade 3 to 4, treatment-related, with: enzalutamide 160 mg daily", "quantity": "incidence of white blood cell decreased", "value": "0%"}
{"Compound": "Cc1ccc([C@@H]2O[C@H](CO)[C@@H](O)[C@H](O)[C@H]2O)cc1Cc1ccc(-c2ccc(F)cc2)s1", "system": "Japanese type 2 diabetes patients", "setting": "400 mg, day 5, 24 h urine collection", "scale": "baseline: baseline", "quantity": "urinary chloride excretion change", "value": "-18 mEq"}
{"Compound": "Cn1c(C(F)(F)F)cc(=O)n(-c2cc(Oc3cccnc3OCC(=O)O)c(Cl)cc2F)c1=O", "system": "Crl:CD1(ICR) mice, female, plasma", "setting": "oral diet, 25 ppm in diet, day 1, 90-day toxicity study", "quantity": "Cmax", "value": "152 ng/mL"}
{"Compound": "CCc1c(-c2ccccc2)c(-c2ccccc2)nn1-c1ccccc1-c1cccc(OCC(=O)O)c1", "system": "Sprague-Dawley rat, stomach homogenate", "setting": "oral, 10 mg/kg, 1 h", "quantity": "concentration", "value": "6260 ng/mL and 4420 ng/mL"}
{"Compound": "Cc1nc(C)c(-c2ccnc(Nc3ccc(N(C)C)c(Cl)c3)n2)s1", "system": "octanol/buffer, 40 mM buffer", "setting": "pH 11", "quantity": "logP", "value": 4.3}
{"Compound": "COc1ccc2c(=O)n(C)c(-c3ccccc3)nc2c1", "system": "Sprague-Dawley rat, male, large intestine", "setting": "oral, 30 mg/kg, 2 h", "scale": "baseline: large intestine over plasma", "quantity": "tissue/plasma ratio", "value": 203}
{"Compound": "C1=C/COCc2cc(ccc2OCCN2CCCC2)Nc2nccc(n2)-c2cccc(c2)COC/1", "system": "rat Sprague-Dawley male, plasma", "setting": "oral, dose not given, with: isavuconazole", "scale": "baseline: without isavuconazole", "quantity": "CLz/F decrease", "value": "67%"}
{"Compound": "CCCC(=O)N[C@@H](Cc1ccccc1)C(=O)N[C@@H](Cc1ccc2ccccc2c1)C(=O)N[C@@H](CCCNC(=N)N)C(=O)N[C@@H](CCCNC(=N)N)C(=O)N[C@@H](CCCNC(=N)N)C(=O)N[C@@H](CCCNC(=N)N)C(=O)N[C@@H](CC)C(=O)N[C@@H](CCCCNC(=S)Nc1ccc2c(c1)C(=O)OC21c2ccc(O)cc2Oc2cc(O)ccc21)C(N)=O", "system": "human serum", "setting": "37 °C", "quantity": "complete degradation time", "value": "≤ 3 h"}
{"Compound": "O=C(O)c1ccc(C(=O)Nc2cc(C3CC3)n[nH]2)cc1", "system": "octanol/buffer", "setting": "pH 11", "quantity": "logP", "value": -1.3}
{"Compound": "C[C@@H](Oc1cc(-c2cnn(C3CCNCC3)c2)cnc1N)c1c(Cl)ccc(F)c1Cl", "system": "patients, plasma", "setting": "oral, dose not given, cycle 2 day 1, with: avelumab", "quantity": "dose-normalised Cmax, mean", "value": "1 ng/mL/mg"}
{"Compound": "CC(C)(C(=O)N1CCOc2c(C#N)cncc2C1)C(F)F", "system": "human, both sexes, plasma", "setting": "oral, 15 mg twice daily, multiple ascending dose", "scale": "baseline: day 14 over day 1", "quantity": "accumulation ratio AUC(0-12h)", "value": 1.45}
{"Compound": "C=CC(=O)NC1CCN(c2ncc3ncnc(Nc4ccc(Oc5ccc6c(c5)ncn6C)c(C)c4)c3n2)CC1", "test": "measured: compound", "system": "healthy male volunteers, plasma", "setting": "oral solution, 60 mg", "quantity": "tmax", "value": "1 h"}
{"Compound": "CNC(=O)c1ccc(-c2cnc3ncc(Cc4ccc5ncccc5c4)n3n2)cc1F", "system": "human moderate hepatic impairment", "setting": "oral, 200 mg single dose, adjusted geometric mean", "quantity": "unbound Cmax", "value": "45.9 ng/mL"}
{"Compound": "O=C1NCCc2nc(OCc3cccc(F)c3)ccc21", "test": "measured: Piloerection", "system": "Sprague-Dawley rat male", "setting": "oral, 100 mg/kg, 30 min", "scale": "direction not given", "quantity": "Irwin test score", "value": 0}
{"Compound": "Cn1c(=O)n(C2CCC(=O)NC2=O)c2cccc(C#CCOC3CCN(C[C@H]4CC[C@H](n5cc(NC(=O)c6cnn7ccc(N8C[C@H]9C[C@@H]8CO9)nc67)c(C(F)F)n5)CC4)CC3)c21 (stereo partly shown)", "setting": "0.5 µM, pH 7.8", "quantity": "H/D exchange half-life", "value": "2.6 h and 1.9 h"}
{"Compound": "CC(C)n1c(Nc2cccnc2)nc2cnc(Nc3ccc(N4CCN(C)CC4)cc3)nc21", "test": "measured: hemoglobin increased", "system": "healthy male subjects", "setting": "oral, 150 mg, study, with: rifampin", "quantity": "subjects with adverse event", "value": "0%"}
{"Compound": "Cc1cc(-c2nccc3c2ccn3CC(=O)Nc2ccc(-c3cnccn3)cn2)ccn1", "system": "human", "setting": "5 mg once daily, multiple ascending dose", "quantity": "post-procedural inflammation", "value": "0%"}
{"Compound": "O=C(c1cccnc1-c1ccncc1)N1CCC(O)(Cc2ccccc2)CC1", "system": "healthy Japanese adults, plasma", "setting": "oral, 1200 mg single dose", "quantity": "AUC(0-inf)/dose", "value": "9.55 ng·h/mL/mg"}
{"Compound": "O=C(OC(C(F)(F)F)C(F)(F)F)N1CCN(Cc2cccc(Oc3ccccc3)c2)CC1", "test": "PET blocking study", "system": "rhesus monkey, brain Pons", "setting": "0.3 mg/kg, compound pretreatment, with: [18F]T-401 tracer", "quantity": "Ktrans", "value": "0.0976 min⁻¹"}
{"Compound": "CSc1ccc(S(=O)(=O)NCc2ccccn2)cc1", "system": "octanol/buffer", "setting": "pH 11, known kinase inactives set", "quantity": "logP", "value": 1.91}
{"Compound": "C=CC(=O)NC1CCN(c2ncc3ncnc(Nc4ccc(Oc5ccc6c(c5)ncn6C)c(C)c4)c3n2)CC1", "test": "measured: neck pain", "system": "human male", "setting": "oral, dose not given, CTCAE on-treatment AEs", "quantity": "adverse events incidence", "value": "6%"}
{"Compound": "COc1ccc(CNc2nc(-c3ccc(C(=O)O)cc3)nc3c2c2ccccc2n3C)cc1Cl", "system": "NSG mice", "setting": "dose not given, day 15 of treatment", "quantity": "body weight", "value": "23.8 g and 23.9 g and 22.7 g and 24.4 g"}
{"Compound": "Cc1cc(NC2CCN(C(=O)OC3CCN(C(=O)/C=C/CN(C)C)C3)CC2)n2ncc(C(C)C)c2n1 (stereo not shown)", "system": "patients with advanced solid tumours", "setting": "dose not given, QD arm, any grade", "quantity": "patients with Arthralgia", "value": "12%"}
{"Compound": "CN(CCC#N)C1CCN(C(=O)Cn2cc(NC(=O)c3cnn4cccnc34)c(-c3cc(Cl)ccc3OC(F)F)n2)CC1", "test": "gamma scintigraphy", "system": "human", "setting": "inhalation, 1 mg single dose", "scale": "baseline: emitted dose", "quantity": "stomach deposition", "value": "28.6%"}
{"Compound": "CN(C)CCNS(=O)(=O)c1ccc(N/C=C2\\C(=O)Nc3ccccc32)cc1", "system": "octanol/buffer", "setting": "pH 11", "quantity": "logP", "value": 2.67}
{"Compound": "CC[C@H](C)/C=C/C(=O)N1C[C@@H](C)C[C@H]1C(=O)N[C@@H](CCC1CCCCC1)C(=O)N[C@H](C(=O)NC(C)(C)C(=O)N[C@@H](CC(C)C)C(=O)N[C@@H](CC(C)C)C(=O)NC(C)(C)C(=O)NC(C)(C)C(=O)NCCC(=O)N[C@@H](C)CN(C)C)[C@H](O)C(C)C", "test": "circular dichroism", "system": "phosphate buffer", "setting": "pH 7.4, 20 °C", "quantity": "alpha-helix content", "value": "76%"}
{"Compound": "CN1C(=O)[C@@H](NC(=O)c2nnc(Cc3ccccc3)[nH]2)COc2cccnc21", "system": "human, both sexes", "setting": "concentration not given", "scale": "baseline: day 14 over day 1", "quantity": "accumulation ratio", "value": "~1"}
{"Compound": "C=CC(=O)N1CCC(c2ccc(C(N)=O)c(-c3ccc(Oc4ccccc4)cc3)n2)CC1", "test": "CTCAE 4.03", "system": "patients with relapsed/refractory MCL", "setting": "oral, dose not given", "quantity": "incidence of serious bladder cancer", "value": "0.9%"}
{"Compound": "O=C(Nc1nc2cccc(-c3ccc(CN4CCS(=O)(=O)CC4)cc3)n2n1)C1CC1", "test": "measured: thrombocytopenia", "system": "rheumatoid arthritis patients", "setting": "oral, 75 mg once daily, 4 weeks, any relatedness", "quantity": "treatment-emergent adverse events", "value": "0%"}
{"Compound": "CCOc1ccc2nc(SCC(=O)Nc3c(C)n(C)n(-c4ccccc4)c3=O)sc2c1", "system": "octanol/buffer", "setting": "pH 11, known kinase inactives set", "quantity": "logP", "value": 2.95}
{"Compound": "Nc1ccccc1/C=C/C(=O)c1ccccc1", "system": "toluene", "setting": "20 °C", "quantity": "emission maximum", "value": "497 nm"}
{"Compound": "O=C(O)[C@H]1O[C@@H](Oc2cc(-c3oc4cc(O)cc(O)c4c(=O)c3O)ccc2O)[C@H](O)[C@@H](O)[C@@H]1O", "system": "human, cerebrospinal fluid", "setting": "concentration not given, median", "quantity": "CSF concentration", "value": "4.5 nM"}
{"Compound": "C=CC(=O)Nc1cc(Nc2nccc(Nc3cc(Cl)c(F)cc3C(C)(C)O)n2)c(OC)cc1N1CC[C@@H](N(C)C)C1", "system": "human patients, plasma", "setting": "oral, 50 mg daily, cycle 2 day 1, geometric mean", "quantity": "Css,max", "value": "68.4 ng/mL"}
{"Compound": "Cn1cc(-c2cn3nccc3c(-c3cnn([C@]4(CC#N)C[C@@H](C#N)C4)c3)n2)cn1", "system": "healthy humans fasted, plasma", "setting": "oral, 100 mg single dose, geometric mean", "quantity": "dose-normalised AUC(0-t)", "value": "13.8 ng·h/mL/mg"}
{"Compound": "FC(F)(F)c1ccc(CNc2ccc(Cc3c[nH]c4ncc(Cl)cc34)cn2)cn1", "test": "measured: dry skin", "system": "human, advanced solid tumours, non-TGCT cohort", "setting": "oral, 1000 mg/day, any grade", "quantity": "treatment-related adverse events", "value": "0%"}
{"Compound": "Cl.[2H]C([2H])([2H])CC(=O)c1cnc(NC(=O)C2CC2)cc1Nc1cccc(-c2ncn(C([2H])([2H])[2H])n2)c1OC", "test": "geometric mean", "system": "human", "setting": "oral, 17.5 mg single dose, fasted, liquid", "quantity": "Cmax", "value": "217 ng/mL"}
{"Compound": "C=CC[C@@H]1/C=C(\\C)C[C@H](C)C[C@H](OC)[C@H]2O[C@@](O)(C(=O)C(=O)N3CCCC[C@H]3C(=O)O[C@H](/C(C)=C/[C@@H]3CC[C@@H](O)[C@H](OC)C3)[C@H](C)[C@@H](O)CC1=O)[C@H](C)C[C@@H]2OC", "system": "Wistar Kyoto rat, male, plasma", "setting": "ip, 0.5 mg/kg/day, day 18", "quantity": "plasma Na+ level, median", "value": "141 mmol/L"}
{"Compound": "COc1cc(Nc2ncc3c(n2)-c2ccc(Cl)cc2C(c2c(F)cccc2OC)=NC3)ccc1C(=O)O", "test": "measured: Hyponatremia, grade 1", "system": "cancer patients, phase 1/2", "setting": "oral, dose not given, with: pembrolizumab", "quantity": "patients with adverse event", "value": "46%"}
{"Compound": "Cc1nc2cccc(OCC(C)(C)C(=O)NC(C)C)c2c(N)c1C(=O)O", "system": "male Swiss albino CD-1 mouse, bone marrow", "setting": "oral, 500 mg/kg, 24 h", "quantity": "micronucleated NCE per 2000 PCE", "value": 0.9}
{"Compound": "N[C@H]1C(O)O[C@H](CO)[C@@H](O)[C@@H]1O (stereo partly shown)", "system": "aqueous solution", "setting": "25 mM, with: glucose", "quantity": "osmolality", "value": "22 mOsmol/kg"}
